{"data": "Measured values gathered from unrelated publications", "note": "A part holds a random share of what one study measured. Values joined by “and” are separate records of one study, mostly repeats; a detail may differ.", "UniProt P10721, sequence (whole entry, unmodified, looked up)": "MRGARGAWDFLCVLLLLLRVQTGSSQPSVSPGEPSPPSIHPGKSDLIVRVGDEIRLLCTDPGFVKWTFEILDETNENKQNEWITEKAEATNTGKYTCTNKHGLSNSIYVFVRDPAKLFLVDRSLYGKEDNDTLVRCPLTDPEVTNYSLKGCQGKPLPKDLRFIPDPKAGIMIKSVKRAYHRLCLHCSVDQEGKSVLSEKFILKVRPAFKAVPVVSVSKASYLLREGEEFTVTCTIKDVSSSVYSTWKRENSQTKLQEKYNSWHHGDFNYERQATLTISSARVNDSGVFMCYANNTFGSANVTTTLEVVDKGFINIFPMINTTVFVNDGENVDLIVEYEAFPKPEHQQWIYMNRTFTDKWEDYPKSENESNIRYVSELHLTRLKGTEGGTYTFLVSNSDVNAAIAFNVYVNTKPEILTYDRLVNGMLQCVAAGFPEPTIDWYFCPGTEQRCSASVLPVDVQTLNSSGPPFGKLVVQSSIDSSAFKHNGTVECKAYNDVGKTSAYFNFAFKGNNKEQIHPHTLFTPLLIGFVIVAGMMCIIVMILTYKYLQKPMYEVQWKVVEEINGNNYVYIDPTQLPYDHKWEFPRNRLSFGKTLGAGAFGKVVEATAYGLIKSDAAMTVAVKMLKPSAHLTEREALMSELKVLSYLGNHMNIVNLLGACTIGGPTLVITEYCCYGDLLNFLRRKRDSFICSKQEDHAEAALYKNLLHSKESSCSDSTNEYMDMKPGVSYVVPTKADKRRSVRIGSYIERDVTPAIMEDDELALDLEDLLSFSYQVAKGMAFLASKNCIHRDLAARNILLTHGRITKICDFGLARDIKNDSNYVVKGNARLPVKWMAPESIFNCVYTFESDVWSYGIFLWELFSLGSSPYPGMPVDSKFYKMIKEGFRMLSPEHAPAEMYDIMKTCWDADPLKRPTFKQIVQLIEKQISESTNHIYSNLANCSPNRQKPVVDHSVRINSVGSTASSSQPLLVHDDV", "UniProt P50750, sequence (whole entry, looked up)": "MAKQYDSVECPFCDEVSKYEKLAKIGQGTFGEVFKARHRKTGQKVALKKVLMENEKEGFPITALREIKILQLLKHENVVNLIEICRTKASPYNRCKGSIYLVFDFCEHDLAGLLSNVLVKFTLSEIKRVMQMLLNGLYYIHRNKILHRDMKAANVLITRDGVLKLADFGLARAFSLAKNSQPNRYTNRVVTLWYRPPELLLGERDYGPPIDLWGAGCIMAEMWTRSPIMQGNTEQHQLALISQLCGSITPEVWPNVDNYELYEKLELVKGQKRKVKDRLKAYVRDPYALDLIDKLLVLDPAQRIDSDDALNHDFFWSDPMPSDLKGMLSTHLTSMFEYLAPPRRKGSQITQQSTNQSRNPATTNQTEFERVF", "UniProt Q9HAZ1, sequence (whole entry, looked up)": "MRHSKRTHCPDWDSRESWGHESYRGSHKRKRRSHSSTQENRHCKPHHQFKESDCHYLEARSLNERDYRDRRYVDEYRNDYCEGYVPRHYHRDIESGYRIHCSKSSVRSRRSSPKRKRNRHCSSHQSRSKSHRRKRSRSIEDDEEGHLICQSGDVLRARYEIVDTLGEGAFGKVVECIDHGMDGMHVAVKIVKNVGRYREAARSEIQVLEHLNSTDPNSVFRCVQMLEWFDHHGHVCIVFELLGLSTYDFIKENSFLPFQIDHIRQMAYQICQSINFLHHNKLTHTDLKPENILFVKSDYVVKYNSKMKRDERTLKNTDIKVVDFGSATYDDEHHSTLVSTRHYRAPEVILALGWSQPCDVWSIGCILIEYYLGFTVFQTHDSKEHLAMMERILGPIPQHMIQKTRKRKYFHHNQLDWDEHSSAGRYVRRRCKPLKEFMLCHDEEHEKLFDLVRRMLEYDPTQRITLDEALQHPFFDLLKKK", "UniProt P35968, sequence (whole entry, looked up)": "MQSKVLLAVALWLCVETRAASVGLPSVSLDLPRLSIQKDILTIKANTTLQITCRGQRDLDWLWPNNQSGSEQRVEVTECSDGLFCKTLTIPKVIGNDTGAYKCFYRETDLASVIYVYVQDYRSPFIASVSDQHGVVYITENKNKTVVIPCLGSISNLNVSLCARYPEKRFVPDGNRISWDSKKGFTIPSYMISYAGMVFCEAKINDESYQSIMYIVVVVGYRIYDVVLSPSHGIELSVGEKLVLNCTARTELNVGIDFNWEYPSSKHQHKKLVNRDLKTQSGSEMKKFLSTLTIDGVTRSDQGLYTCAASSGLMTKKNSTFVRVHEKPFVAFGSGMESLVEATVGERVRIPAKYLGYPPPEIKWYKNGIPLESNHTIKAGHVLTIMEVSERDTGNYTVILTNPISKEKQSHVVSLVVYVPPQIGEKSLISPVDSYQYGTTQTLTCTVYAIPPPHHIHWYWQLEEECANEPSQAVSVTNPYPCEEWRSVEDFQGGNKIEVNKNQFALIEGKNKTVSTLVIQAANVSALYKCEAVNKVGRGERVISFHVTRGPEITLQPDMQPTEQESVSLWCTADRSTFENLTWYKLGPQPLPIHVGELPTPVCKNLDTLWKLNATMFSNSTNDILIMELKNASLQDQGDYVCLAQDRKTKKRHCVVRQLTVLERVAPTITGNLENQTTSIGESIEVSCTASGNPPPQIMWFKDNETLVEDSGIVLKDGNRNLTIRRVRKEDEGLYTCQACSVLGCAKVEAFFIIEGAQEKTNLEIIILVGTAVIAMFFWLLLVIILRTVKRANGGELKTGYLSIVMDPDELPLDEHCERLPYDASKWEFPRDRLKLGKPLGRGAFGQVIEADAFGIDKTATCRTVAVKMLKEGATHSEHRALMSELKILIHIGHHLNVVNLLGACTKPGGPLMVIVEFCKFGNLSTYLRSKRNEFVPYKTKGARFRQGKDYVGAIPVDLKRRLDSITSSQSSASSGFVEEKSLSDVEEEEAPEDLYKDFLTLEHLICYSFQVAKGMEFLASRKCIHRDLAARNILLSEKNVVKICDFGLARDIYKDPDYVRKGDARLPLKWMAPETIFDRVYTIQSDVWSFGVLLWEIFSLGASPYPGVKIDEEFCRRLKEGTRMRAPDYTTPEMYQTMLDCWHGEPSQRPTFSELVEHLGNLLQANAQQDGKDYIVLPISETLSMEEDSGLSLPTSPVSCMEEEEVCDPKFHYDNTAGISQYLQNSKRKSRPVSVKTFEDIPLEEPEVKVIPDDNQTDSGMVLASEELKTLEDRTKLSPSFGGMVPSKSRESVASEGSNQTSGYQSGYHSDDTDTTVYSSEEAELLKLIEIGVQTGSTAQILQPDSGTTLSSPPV", "UniProt Q16832, sequence (whole entry, looked up)": "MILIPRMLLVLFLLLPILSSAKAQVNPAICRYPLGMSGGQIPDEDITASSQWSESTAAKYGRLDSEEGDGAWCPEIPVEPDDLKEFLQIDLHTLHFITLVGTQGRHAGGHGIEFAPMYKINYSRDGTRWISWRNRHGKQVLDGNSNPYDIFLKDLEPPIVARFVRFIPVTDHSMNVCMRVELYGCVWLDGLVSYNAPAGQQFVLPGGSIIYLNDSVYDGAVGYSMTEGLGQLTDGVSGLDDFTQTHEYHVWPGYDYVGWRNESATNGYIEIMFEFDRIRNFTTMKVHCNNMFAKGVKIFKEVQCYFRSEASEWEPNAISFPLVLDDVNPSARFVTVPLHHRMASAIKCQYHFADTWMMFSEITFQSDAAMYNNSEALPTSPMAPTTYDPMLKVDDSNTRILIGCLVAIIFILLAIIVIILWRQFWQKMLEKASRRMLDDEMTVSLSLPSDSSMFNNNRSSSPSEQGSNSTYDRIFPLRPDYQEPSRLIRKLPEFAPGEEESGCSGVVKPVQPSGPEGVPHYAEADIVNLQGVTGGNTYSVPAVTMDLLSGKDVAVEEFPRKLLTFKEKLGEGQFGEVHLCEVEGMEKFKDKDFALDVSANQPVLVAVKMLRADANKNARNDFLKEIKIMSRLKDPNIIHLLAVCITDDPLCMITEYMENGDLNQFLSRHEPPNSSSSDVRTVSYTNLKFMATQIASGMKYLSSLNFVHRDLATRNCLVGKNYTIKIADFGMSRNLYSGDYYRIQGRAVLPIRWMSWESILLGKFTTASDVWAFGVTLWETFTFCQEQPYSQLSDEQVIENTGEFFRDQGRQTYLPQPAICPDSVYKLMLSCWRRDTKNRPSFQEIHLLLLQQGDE", "UniProt Q9UQM7, sequence (whole entry, looked up)": "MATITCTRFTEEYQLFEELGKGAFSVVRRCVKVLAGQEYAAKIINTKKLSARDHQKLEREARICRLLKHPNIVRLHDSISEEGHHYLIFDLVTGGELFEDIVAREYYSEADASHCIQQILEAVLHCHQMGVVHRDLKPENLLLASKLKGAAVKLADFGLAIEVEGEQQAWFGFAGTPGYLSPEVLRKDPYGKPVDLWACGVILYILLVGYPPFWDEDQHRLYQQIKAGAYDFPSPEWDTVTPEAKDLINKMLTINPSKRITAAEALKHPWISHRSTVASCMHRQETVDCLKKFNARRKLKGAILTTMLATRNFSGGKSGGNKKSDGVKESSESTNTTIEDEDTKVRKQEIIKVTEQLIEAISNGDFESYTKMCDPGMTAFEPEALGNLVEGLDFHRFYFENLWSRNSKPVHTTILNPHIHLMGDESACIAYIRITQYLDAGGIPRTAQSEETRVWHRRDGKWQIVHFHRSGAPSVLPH", "UniProt Q9H3Y6, sequence (whole entry, looked up)": "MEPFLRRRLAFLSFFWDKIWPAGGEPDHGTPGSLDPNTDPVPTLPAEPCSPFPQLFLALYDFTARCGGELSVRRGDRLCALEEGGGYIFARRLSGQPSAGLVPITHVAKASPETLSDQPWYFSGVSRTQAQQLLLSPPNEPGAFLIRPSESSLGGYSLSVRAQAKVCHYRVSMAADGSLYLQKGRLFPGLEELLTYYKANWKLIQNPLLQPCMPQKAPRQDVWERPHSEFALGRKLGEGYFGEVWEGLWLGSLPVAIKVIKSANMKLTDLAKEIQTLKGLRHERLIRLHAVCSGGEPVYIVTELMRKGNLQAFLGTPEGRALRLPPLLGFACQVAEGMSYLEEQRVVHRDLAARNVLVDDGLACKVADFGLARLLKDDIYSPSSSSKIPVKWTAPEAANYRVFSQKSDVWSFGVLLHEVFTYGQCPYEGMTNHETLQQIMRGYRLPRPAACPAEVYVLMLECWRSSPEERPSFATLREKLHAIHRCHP"}
{"data": "Set 1", "Structure (SMILES)": "c1ccc(-c2n[nH]c3c2oc2ccccc23)cc1", "read-out": "enzyme activity", "mode": "inhibitor", "concentration": "0.5 µM", "relative to": "control"}
{"target": "Mitogen-activated protein kinase 14 (MAPK14, Homo sapiens, UniProt Q16539)", "remaining activity [%]": 102}
{"target": "Mitogen-activated protein kinase 11 (MAPK11, Homo sapiens, UniProt Q15759)", "remaining activity [%]": 95.7}
{"target": "Vascular endothelial growth factor receptor 2 (KDR, Homo sapiens, UniProt P35968)", "remaining activity [%]": 107}
{"target": "RAC-beta serine/threonine-protein kinase (AKT2, Homo sapiens, UniProt P31751)", "remaining activity [%]": 112}
{"target": "Hepatocyte growth factor receptor (MET, Homo sapiens, UniProt P08581)", "remaining activity [%]": 98.4}
{"target": "Serine/threonine-protein kinase MARK2 (MARK2, Homo sapiens, UniProt Q7KZI7)", "remaining activity [%]": 92.9}
{"target": "Serine/threonine-protein kinase Nek3 (NEK3, Homo sapiens, UniProt P51956)", "remaining activity [%]": 98.9}
{"target": "Calcium/calmodulin-dependent protein kinase type IV (CAMK4, Homo sapiens, UniProt Q16566)", "remaining activity [%]": 93.7}
{"target": "MAP/microtubule affinity-regulating kinase 4 (MARK4, Homo sapiens, UniProt Q96L34)", "remaining activity [%]": 98.2}
{"target": "Dual specificity protein kinase CLK4 (CLK4, Homo sapiens, UniProt Q9HAZ1)", "remaining activity [%]": 98.9}
{"target": "Mitogen-activated protein kinase 1 (MAPK1, Homo sapiens, UniProt P28482)", "remaining activity [%]": 118}
{"target": "Misshapen-like kinase 1 (MINK1, Homo sapiens, UniProt Q8N4C8)", "remaining activity [%]": 81.4}
{"target": "Discoidin domain-containing receptor 2 (DDR2, Homo sapiens, UniProt Q16832)", "remaining activity [%]": 96}
{"target": "Cyclin-dependent kinase 9, with cyclin K (CDK9, Homo sapiens, UniProt P50750)", "remaining activity [%]": 86.2}
{"data": "Set 2", "cell line": "mouse MPNST tumor cells", "technique": "high-content nuclear imaging", "item": "cell number", "concentration": "10 µM", "time": "12 h", "notes": "mean of 2 replicates", "relative to": "plate mean", "reading": "higher = more cells"}
{"SMILES": "Cc1cnc(NC(=O)c2cc(Oc3cnc(C(=O)N(C)C)nc3)c3cc(C)oc3c2)cn1", "nuclei count": "2.31 z-score"}
{"SMILES": "Cc1ccc(S(=O)(=O)Cc2nc(-c3ccc(C(=O)NCc4cccnc4)cc3)oc2C)cc1", "nuclei count": "-0.892 z-score"}
{"SMILES": "CN(C)CC/C=C1/c2ccccc2COc2ccc(CC(=O)O)cc21", "nuclei count": "2.33 z-score and 1.93 z-score"}
{"SMILES": "Cc1ccc(-n2nc(C(C)(C)C)cc2NC(=O)Nc2ccc(OCCN3CCOCC3)c3ccccc23)cc1", "nuclei count": "2.8 z-score"}
{"SMILES": "Cc1c2ccccc2c(CSC(=N)N)c2ccccc12", "nuclei count": "-6.34 z-score"}
{"SMILES": "CCOC(=O)[C@H](CCc1ccccc1)N[C@@H](C)C(=O)N1[C@H](C(=O)O)C[C@@H]2CCC[C@@H]21", "nuclei count": "0.054 z-score and 1.18 z-score"}
{"SMILES": "Oc1c(Cl)cc(Cl)c(Cl)c1Cc1c(O)c(Cl)cc(Cl)c1Cl", "nuclei count": "3.58 z-score"}
{"SMILES": "CC(=O)N[C@@H](CC(C)C)C(=O)O", "nuclei count": "1.53 z-score"}
{"SMILES": "CN(C)CCCO[C@@H]1[C@H]2OC(C)(C)O[C@H]2O[C@@H]1[C@H](O)CO", "nuclei count": "1.43 z-score"}
{"SMILES": "C[C@@]1(O)[C@H](O)[C@@H](CO)O[C@H]1n1cnc2c(NC3CCCC3)nc(Cl)nc21", "nuclei count": "-0.079 z-score"}
{"SMILES": "CCN(CC)CCOC(=O)C(c1ccccc1)c1ccccc1", "nuclei count": "0.953 z-score"}
{"SMILES": "CCN(CC)C(C)CN1c2ccccc2Sc2ccccc21 (stereo not shown)", "nuclei count": "1.61 z-score"}
{"SMILES": "O=C(C=Cc1ccccc1)NC(NC(=S)Nc1ccc(Cl)cc1)C(Cl)(Cl)Cl (stereo not shown)", "nuclei count": "-0.246 z-score"}
{"SMILES": "C[C@]1(Cn2ccnn2)[C@H](C(=O)O)N2C(=O)C[C@H]2S1(=O)=O", "nuclei count": "0.234 z-score"}
{"SMILES": "O=NN(CCCl)C(=O)NCCCl", "nuclei count": "-1.22 z-score"}
{"data": "Set 3", "Compound": "Cn1nc(C(F)(F)F)cc1-c1cnc(N2CCc3cc(S(=O)(=O)Nc4c(F)cc(Cl)cc4F)cc(N4CCCC4=O)c32)nc1", "read-out": "cell-free assay", "technique": "competition with immobilised ligand", "concentration": "1 µM"}
{"target": "Tyrosine-protein kinase Yes (YES1, Homo sapiens, UniProt P07947)", "remaining binding": "99%"}
{"target": "SNF-related serine/threonine-protein kinase (SNRK, Homo sapiens, UniProt Q9NRH2)", "remaining binding": "87%"}
{"target": "Calcium/calmodulin-dependent protein kinase type II subunit alpha (CAMK2A, Homo sapiens, UniProt Q9UQM7)", "remaining binding": "75%"}
{"target": "RAC-alpha serine/threonine-protein kinase (AKT1, Homo sapiens, UniProt P31749)", "remaining binding": "100%"}
{"target": "Dual specificity protein kinase CLK1 (CLK1, Homo sapiens, UniProt P49759)", "remaining binding": "87%"}
{"target": "Tyrosine-protein kinase Srms (SRMS, Homo sapiens, UniProt Q9H3Y6)", "remaining binding": "100%"}
{"target": "Mast/stem cell growth factor receptor Kit (KIT, Homo sapiens, UniProt P10721, L576P)", "remaining binding": "93%"}
{"target": "Mast/stem cell growth factor receptor Kit (KIT, Homo sapiens, UniProt P10721, T670I/V559D)", "remaining binding": "88%"}
{"target": "Receptor tyrosine-protein kinase erbB-3 (ERBB3, Homo sapiens, UniProt P21860)", "remaining binding": "93%"}
{"target": "Ribosomal protein S6 kinase alpha-4, C-terminal kinase domain (RPS6KA4, Homo sapiens, UniProt O75676)", "remaining binding": "85%"}
{"target": "TRAF2 and NCK-interacting protein kinase (TNIK, Homo sapiens, UniProt Q9UKE5)", "remaining binding": "100%"}
{"target": "Phosphatidylinositol 4,5-bisphosphate 3-kinase catalytic subunit alpha isoform (PIK3CA, Homo sapiens, UniProt P42336, H1047Y)", "remaining binding": "76%"}
{"target": "Tyrosine-protein kinase ABL1, non-phosphorylated (ABL1, Homo sapiens, UniProt P00519, H396P)", "remaining binding": "81%"}
{"target": "Epidermal growth factor receptor (EGFR, Homo sapiens, UniProt P00533, G719S)", "remaining binding": "100%"}
{"target": "Mast/stem cell growth factor receptor Kit (KIT, Homo sapiens, UniProt P10721)", "remaining binding": "94%"}
{"data": "Set 4", "SMILES": "CC(C)n1cnc(-c2ccc(F)cc2)c1-c1ncc(C(=O)Nc2ccc(N3CCN(C)CC3)cc2)[nH]1", "technique": "phase 2a clinical trial", "species": "patients with idiopathic pulmonary fibrosis"}
{"item": "interstitial lung disease", "dose": "60 mg once daily", "notes": "Grade 5", "patients with treatment-emergent adverse events [%]": 0}
{"item": "drug-induced liver injury", "dose": "30 mg once daily", "notes": "Grade 4", "patients with treatment-emergent adverse events [%]": 0}
{"item": "electrocardiogram high voltage", "dose": "dose not given", "notes": "Grade 4, all drug arms total", "patients with treatment-emergent adverse events [%]": 0}
{"item": "lumbar vertebral fracture", "dose": "dose not given", "notes": "Grade 5, maximum intensity, all drug arms total", "patients with treatment-emergent adverse events [%]": 0}
{"item": "interstitial lung disease", "dose": "60 mg once daily", "notes": "Grade 1", "patients with treatment-emergent adverse events [%]": 0}
{"item": "left ventricular dysfunction", "dose": "30 mg once daily", "notes": "Grade 3", "patients with treatment-emergent adverse events [%]": 0}
{"item": "left ventricular dysfunction", "dose": "30 mg once daily", "notes": "Grade 5", "patients with treatment-emergent adverse events [%]": 0}
{"item": "idiopathic pulmonary fibrosis", "dose": "dose not given", "notes": "Grade 5, all drug arms", "patients with treatment-emergent adverse events [%]": 0}
{"item": "left bundle branch block", "dose": "60 mg once daily", "notes": "Grade 4", "patients with treatment-emergent adverse events [%]": 0}
{"item": "interstitial lung disease", "dose": "60 mg once daily", "notes": "Grade 4", "patients with treatment-emergent adverse events [%]": 0}
{"item": "lumbar vertebral fracture", "dose": "30 mg once daily", "notes": "Grade 3, maximum intensity", "patients with treatment-emergent adverse events [%]": 0}
{"item": "metabolism and nutrition disorders (SOC)", "dose": "30 mg once daily", "notes": "Grade 5", "patients with treatment-emergent adverse events [%]": 0}
{"item": "gastro-oesophageal reflux disease", "dose": "60 mg once daily", "notes": "Grade 3", "patients with treatment-emergent adverse events [%]": 0}
{"item": "left bundle branch block", "dose": "dose not given", "notes": "Grade 5, all drug arms", "patients with treatment-emergent adverse events [%]": 0}
{"item": "electrocardiogram T wave abnormal", "dose": "30 mg once daily", "notes": "Grade 1", "patients with treatment-emergent adverse events [%]": 0}
{"item": "first degree atrioventricular block", "dose": "dose not given", "notes": "Grade 2, all drug arms", "patients with treatment-emergent adverse events [%]": 0}
{"item": "metabolism and nutrition disorders (SOC)", "dose": "30 mg once daily", "notes": "Grade 3", "patients with treatment-emergent adverse events [%]": 0}
